Results gathered from unrelated publications.
Lines come from different studies, so protocols differ. ± marks the error that the study gave.
UniProt P0A951, sequence (whole entry, looked up): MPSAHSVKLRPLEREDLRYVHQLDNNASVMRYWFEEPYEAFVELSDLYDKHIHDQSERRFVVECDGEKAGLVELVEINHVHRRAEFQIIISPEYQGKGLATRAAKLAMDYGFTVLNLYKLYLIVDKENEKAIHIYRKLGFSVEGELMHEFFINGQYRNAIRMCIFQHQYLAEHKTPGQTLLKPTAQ
UniProt P30926, sequence (whole entry, looked up): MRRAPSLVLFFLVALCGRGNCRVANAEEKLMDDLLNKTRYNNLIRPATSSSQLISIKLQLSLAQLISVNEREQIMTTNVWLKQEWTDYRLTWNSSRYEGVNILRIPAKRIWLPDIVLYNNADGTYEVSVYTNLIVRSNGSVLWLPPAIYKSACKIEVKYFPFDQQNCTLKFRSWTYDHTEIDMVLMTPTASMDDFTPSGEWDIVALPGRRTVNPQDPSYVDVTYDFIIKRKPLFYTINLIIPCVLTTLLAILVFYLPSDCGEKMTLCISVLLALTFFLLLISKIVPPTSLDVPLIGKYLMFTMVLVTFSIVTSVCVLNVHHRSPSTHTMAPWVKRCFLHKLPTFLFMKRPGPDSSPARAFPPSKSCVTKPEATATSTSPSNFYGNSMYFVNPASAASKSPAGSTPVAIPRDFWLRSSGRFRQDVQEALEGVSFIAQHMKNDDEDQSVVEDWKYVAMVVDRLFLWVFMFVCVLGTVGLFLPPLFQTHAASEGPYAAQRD
UniProt P32297, sequence (whole entry, looked up): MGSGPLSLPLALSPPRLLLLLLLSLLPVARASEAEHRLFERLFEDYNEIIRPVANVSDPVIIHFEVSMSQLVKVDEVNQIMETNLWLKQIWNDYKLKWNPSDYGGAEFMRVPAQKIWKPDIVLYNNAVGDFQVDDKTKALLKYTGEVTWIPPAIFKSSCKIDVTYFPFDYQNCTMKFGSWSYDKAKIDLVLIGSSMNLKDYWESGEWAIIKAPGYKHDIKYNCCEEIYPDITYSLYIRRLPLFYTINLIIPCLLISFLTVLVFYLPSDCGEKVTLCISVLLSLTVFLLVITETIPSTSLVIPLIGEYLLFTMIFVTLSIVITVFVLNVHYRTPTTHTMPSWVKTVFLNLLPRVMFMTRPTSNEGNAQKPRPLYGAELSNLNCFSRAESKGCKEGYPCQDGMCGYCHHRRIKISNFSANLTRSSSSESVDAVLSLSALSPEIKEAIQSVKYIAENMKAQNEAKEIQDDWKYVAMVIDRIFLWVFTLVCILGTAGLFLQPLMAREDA
UniProt P20272, sequence (whole entry, looked up): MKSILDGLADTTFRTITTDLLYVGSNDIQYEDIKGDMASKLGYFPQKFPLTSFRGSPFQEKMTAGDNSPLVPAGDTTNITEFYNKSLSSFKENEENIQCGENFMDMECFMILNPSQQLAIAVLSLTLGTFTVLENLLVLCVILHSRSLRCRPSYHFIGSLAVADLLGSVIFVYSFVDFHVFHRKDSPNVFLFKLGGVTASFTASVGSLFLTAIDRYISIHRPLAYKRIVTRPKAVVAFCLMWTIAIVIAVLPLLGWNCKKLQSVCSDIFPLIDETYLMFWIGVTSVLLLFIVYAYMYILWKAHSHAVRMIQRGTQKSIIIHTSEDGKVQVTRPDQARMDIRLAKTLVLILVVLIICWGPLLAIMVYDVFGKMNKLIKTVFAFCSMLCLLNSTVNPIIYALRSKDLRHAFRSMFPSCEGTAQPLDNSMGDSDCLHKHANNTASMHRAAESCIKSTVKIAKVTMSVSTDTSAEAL

Molecule = O=C(NNC(=O)c1ccc(CNS(=O)(=O)c2ccc(F)c(Cl)c2)cc1)c1ccccc1; target or system = mouse hippocampal CA1 neurons; assay = NMDA receptor EPSC; conditions = 3 µM, holding +40 mV; scale = baseline: baseline; quantity = inhibition; value = 35 ± 6%
Molecule = O=C(CN1CCN(S(=O)(=O)c2ccccc2F)CC1)Nc1ccccc1F; target or system = Neuronal acetylcholine receptor; alpha3/beta4 (Homo sapiens, UniProt P30926+P32297); assay = inhibitor, calcium accumulation; system = HEK tsA201 cells; quantity = Hill coefficient; value = -0.6
Molecule = CNSRQTDREDELI; system = peptide, human polyclonal IgM RF MCC; conditions = concentration not given, 5 µg/mL mAb II-481 coated, together with: RF at 50% max binding concentration; quantity = inhibition; value = 0%
Molecule = COC(=O)C1=CCCN(C)C1; assay = carboxylate metabolite formation, substrate; system = human liver microsomes; conditions = 15 min, 0.2 °C; quantity = Vmax; value = 783 nmol/min/mg protein
Molecule = CN1C(=CC=CC=CC2=[N+](CCCCCC(=O)NCCCC[C@H](NC(=O)[C@H](CCCCNC(=O)COCCOCCOCCNC(=O)[C@H](Cc3ccccc3)NC(=O)[C@H](CCCNC(=N)N)NC(=O)[C@@H]3CCCN3C(=O)[C@H](CC(N)=O)NC(=O)[C@@H]3CCCN3C(=O)[C@H](CO)NC(=O)[C@@H](N)CCCCN)NC(=O)COCCOCCOCCNC(=O)[C@H](CCC(=O)O)NC(=O)[C@H](CCCNC(=N)N)NC(=O)[C@@H]3CCCN3C(=O)[C@H](CCCCN)NC(=O)[C@H](Cc3c[nH]cn3)NC(=O)[C@H](CCCNC(=N)N)NC(=O)[C@@H](N)CCC(N)=O)C(N)=O)c3ccc4ccccc4c3C2(C)C)C(C)(C)c2c1ccc1ccccc21; assay = Barrett's neoplasia detection, confocal microscopy; system = human esophageal biopsies; conditions = 0.5 µM, T/B ratio cutoff 5.9; quantity = specificity; value = 87%
Molecule = Cc1ncc(CNC(=O)c2cnc(CNS(=O)(=O)c3ccc(F)c(Cl)c3)cn2)s1; target or system = mouse hippocampal CA1 neurons; assay = NMDA receptor EPSC; conditions = 3 µM, holding +40 mV; scale = baseline: baseline; quantity = inhibition; value = 34 ± 4%
Molecule = Nc1ncnc2c1ncn2[C@@H]1O[C@H](COP(=O)(O)OP(=O)(O)O)[C@@H](O)[C@H]1O; system = mouse tissue mitochondria; conditions = concentration 12.5 to 25 µM, together with: glycerol 3-phosphate; quantity = OxPhos flux increase; value = < 4%
Molecule = NCCCCN; target or system = speG (Escherichia coli, UniProt P0A951); assay = substrate; quantity = Km; value = 51 ± 5.4 mM
Molecule = NSRQTDR; system = peptide, human polyclonal IgM RF AGER; conditions = concentration not given, 5 µg/mL mAb II-481 coated, together with: RF at 50% max binding concentration; quantity = inhibition; value = 0%
Molecule = CCCCCCCCCCCCCC(=O)O[C@@H]1[C@@H](C)[C@@]2(O)[C@@H](C=C(CO)C[C@]3(O)C(=O)C(C)=C[C@@H]23)[C@@H]2C(C)(C)[C@]12OC(C)=O; target or system = rat pancreatic acini; assay = measured: Yes kinase pY416; conditions = 1 µM, 2.5 min, calcium-free medium; scale = baseline: untreated; quantity = phosphorylation level; value = 393 ± 76%
Molecule = CN[C@@](C)(C[18F])C(=O)O; system = SCID mouse U87 xenograft, kidney; conditions = 120 min, post injection; quantity = tissue uptake; value = 3.3 ± 0.4 %ID/g
Molecule = CCCCCC(O)C=CC=O (centres unmarked); assay = dopamine uptake; system = rat striatal vesicles; conditions = 60 µM, 15 min; quantity = Vmax; value = 22 fmol/µg/min
Molecule = CCCCCc1cc(O)c2c(c1)OC(C)(C)[C@@H]1CCC(C)=C[C@@H]21; target or system = Cnr1 (Rattus norvegicus, UniProt P20272); assay = G protein activation, agonist; system = Sprague-Dawley rat, male, cerebellar membranes; scale = baseline: basal binding; quantity = Emax; value = 40.5%
Molecule = Oc1ccc(-c2ccc(Cl)cc2)cc1; assay = microarray, measured: Rock mRNA; system = F344 Big Blue rats, female, liver; conditions = dose not given; scale = baseline: corn oil; quantity = fold change; value = 5 fold
